Measured values from different studies.
Compare with care: the assays were run in different laboratories. “And” joins repeats or separate records; there may be more than shown. Numbers after ± are the reported error.
ACHE: Acetylcholinesterase (ACHE, Homo sapiens, UniProt P22303)
Sequence of UniProt P22303 (whole entry, looked up): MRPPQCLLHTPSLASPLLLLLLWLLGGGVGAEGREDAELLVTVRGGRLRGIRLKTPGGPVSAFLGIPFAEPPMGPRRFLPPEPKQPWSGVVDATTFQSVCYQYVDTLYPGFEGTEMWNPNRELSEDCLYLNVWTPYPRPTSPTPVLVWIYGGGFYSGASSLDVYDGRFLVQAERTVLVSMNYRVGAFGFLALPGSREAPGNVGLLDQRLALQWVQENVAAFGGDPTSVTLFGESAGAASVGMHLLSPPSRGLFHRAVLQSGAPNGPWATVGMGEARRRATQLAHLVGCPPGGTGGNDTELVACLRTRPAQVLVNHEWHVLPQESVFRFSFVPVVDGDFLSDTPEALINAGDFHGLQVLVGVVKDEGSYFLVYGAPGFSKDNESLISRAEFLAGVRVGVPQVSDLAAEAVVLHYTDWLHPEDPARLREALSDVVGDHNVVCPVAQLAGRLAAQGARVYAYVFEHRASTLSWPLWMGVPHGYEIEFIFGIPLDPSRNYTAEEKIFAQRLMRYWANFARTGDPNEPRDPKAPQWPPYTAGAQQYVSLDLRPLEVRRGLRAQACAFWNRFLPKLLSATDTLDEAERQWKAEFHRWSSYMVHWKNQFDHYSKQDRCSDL
PFF0160c E182D: Dihydroorotate dehydrogenase (quinone), mitochondrial (PFF0160c, Plasmodium falciparum, UniProt Q08210, E182D)
Sequence of UniProt Q53H76 (whole entry, looked up): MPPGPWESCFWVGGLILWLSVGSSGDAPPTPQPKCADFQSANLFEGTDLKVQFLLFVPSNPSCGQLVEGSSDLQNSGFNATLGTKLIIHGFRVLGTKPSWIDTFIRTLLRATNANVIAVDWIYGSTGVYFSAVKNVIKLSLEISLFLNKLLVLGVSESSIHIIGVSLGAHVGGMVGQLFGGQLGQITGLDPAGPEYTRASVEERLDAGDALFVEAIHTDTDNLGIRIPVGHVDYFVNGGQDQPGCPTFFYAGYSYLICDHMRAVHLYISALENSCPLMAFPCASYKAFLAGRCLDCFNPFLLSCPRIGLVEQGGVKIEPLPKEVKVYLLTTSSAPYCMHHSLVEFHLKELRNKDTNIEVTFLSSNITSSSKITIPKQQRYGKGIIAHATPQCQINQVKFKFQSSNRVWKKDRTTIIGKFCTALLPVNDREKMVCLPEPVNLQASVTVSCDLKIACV
Sequence of UniProt Q9GZZ6 (whole entry, looked up): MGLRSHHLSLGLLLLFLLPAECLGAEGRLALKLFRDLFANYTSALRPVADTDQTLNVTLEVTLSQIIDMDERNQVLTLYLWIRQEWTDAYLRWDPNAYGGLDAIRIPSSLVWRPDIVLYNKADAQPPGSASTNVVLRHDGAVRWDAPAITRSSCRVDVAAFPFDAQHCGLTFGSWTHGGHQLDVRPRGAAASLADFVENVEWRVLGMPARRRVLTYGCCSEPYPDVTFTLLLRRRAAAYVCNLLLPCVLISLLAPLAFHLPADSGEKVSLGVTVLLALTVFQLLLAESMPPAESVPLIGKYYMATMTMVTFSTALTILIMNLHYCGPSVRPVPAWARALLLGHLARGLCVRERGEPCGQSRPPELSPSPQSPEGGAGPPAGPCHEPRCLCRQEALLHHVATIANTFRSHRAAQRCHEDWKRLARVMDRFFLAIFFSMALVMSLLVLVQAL
Sequence of UniProt P41252 (whole entry, looked up): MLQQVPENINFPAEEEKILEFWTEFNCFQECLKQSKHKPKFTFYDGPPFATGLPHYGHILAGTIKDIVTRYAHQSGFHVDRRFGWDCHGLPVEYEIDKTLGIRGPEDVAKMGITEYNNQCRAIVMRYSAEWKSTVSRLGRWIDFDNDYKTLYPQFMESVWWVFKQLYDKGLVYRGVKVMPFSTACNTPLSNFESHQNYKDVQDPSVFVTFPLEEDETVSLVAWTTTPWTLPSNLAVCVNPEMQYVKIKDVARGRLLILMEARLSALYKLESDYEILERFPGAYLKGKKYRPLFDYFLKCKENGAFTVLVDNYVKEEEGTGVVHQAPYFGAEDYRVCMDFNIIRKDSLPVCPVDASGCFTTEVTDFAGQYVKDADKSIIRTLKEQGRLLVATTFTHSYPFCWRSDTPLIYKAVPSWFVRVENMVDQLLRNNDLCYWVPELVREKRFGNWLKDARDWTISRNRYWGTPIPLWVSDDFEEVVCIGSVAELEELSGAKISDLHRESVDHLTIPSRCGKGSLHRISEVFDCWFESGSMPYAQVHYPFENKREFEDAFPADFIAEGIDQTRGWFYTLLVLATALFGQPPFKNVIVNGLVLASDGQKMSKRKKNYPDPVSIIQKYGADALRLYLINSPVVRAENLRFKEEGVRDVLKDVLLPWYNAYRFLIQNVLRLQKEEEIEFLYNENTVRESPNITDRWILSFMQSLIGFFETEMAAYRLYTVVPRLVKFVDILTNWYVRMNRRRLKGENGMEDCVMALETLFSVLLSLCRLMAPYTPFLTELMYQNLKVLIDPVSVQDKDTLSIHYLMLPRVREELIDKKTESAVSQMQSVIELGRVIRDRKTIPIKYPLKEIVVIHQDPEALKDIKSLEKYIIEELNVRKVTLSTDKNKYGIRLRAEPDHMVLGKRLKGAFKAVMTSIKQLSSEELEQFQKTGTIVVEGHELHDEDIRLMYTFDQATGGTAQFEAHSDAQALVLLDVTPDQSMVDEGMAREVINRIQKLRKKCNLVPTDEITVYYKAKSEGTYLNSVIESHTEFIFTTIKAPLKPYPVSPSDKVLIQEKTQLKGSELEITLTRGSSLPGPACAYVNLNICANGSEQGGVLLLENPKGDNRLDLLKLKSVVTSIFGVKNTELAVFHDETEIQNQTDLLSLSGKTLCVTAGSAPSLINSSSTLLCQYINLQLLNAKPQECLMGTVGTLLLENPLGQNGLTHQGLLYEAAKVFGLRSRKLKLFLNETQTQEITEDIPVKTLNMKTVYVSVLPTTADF
Sequence of UniProt O42275 (whole entry, looked up): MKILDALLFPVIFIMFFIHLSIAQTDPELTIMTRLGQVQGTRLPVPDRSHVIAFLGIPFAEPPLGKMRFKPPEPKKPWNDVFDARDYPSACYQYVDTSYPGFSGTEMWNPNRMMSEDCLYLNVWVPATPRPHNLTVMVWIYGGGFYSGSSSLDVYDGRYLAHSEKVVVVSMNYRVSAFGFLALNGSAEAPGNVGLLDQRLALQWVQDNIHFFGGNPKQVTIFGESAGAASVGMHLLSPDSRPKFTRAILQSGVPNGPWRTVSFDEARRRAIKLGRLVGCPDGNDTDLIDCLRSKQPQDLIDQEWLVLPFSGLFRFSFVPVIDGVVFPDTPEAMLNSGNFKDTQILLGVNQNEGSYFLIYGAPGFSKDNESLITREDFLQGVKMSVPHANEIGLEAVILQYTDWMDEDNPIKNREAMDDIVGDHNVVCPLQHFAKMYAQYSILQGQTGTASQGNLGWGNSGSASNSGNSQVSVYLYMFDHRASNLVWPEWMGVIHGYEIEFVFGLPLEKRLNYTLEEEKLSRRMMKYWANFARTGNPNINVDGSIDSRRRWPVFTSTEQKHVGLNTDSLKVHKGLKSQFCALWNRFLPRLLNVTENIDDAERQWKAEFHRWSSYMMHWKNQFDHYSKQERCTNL
Sequence of UniProt Q08460 (whole entry, looked up): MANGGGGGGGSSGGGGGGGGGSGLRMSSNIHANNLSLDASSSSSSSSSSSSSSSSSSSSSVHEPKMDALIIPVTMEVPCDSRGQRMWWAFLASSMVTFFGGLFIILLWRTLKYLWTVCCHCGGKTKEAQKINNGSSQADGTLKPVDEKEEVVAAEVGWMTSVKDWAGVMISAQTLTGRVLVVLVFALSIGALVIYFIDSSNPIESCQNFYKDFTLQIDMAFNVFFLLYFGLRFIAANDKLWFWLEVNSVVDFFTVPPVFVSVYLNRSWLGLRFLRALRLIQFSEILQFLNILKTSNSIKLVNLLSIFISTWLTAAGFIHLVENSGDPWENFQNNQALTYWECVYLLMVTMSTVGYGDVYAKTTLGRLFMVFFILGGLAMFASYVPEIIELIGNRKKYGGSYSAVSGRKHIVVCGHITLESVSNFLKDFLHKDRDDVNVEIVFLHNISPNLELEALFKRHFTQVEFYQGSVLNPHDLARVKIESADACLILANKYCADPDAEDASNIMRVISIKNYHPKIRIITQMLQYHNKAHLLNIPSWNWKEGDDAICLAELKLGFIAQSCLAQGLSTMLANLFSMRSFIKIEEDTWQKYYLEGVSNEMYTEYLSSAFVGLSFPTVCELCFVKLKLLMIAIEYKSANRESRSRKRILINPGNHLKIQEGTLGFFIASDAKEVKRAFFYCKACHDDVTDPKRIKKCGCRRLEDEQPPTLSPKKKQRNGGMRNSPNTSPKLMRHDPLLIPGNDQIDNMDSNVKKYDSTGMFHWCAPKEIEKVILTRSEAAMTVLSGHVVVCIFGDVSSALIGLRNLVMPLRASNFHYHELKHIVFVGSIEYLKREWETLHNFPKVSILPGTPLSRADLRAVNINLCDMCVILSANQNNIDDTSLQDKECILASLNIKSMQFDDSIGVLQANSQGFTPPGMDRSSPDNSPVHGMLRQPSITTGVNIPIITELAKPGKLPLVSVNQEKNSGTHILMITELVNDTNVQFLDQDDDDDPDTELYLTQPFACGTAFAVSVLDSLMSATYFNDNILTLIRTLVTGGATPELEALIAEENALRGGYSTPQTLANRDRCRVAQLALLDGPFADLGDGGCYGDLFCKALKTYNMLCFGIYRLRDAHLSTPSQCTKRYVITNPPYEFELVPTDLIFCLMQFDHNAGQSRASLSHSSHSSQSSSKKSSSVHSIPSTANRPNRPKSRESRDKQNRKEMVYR
Sequence of UniProt P51810 (whole entry, looked up): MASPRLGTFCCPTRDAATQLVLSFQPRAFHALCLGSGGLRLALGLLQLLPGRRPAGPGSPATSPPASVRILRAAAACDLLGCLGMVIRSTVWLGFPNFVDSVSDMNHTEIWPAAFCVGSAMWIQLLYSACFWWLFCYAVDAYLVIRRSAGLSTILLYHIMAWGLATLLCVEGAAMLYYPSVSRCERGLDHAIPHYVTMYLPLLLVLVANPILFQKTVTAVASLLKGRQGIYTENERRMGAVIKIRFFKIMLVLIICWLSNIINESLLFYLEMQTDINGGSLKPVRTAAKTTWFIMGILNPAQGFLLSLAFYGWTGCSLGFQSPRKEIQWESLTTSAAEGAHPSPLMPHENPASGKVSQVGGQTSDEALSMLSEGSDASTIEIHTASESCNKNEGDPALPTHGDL

SMILES | target | assay | test system | conditions | scale | measurement | value
CC(CCc1ccccc1)NC(C)C(O)c1ccc(O)cc1 (stereo not drawn) | ACHE | – | biochemical | concentration not given | – | activity class | inactive
NCCc1c[nH]c2ccc(O)cc12 | NMT from Rhinella marina | – | – | 10 min, 30 °C | – | Km | 79 ± 14.4 µM
CN1CCc2[nH]c3ccccc3c2CC1.O=C(O)/C=C/C(=O)O | Neuronal acetylcholine receptor; alpha9/alpha10 (Homo sapiens, UniProt Q9GZZ6+Q9UGM1) | ion current, inhibitor, two-electrode voltage clamp | Xenopus laevis oocytes | 3 µM, human receptor, with: acetylcholine 6 µM | – | recovery time constant | 9.6 ± 0.2 s
c1ccc2c3c(ccc2c1)-c1cccc2cccc-3c12 | Aryl hydrocarbon receptor (Danio rerio, UniProt Q9YGV3) | reporter gene, agonist, luciferase reporter | ZF-4 | 13.72 µM | baseline: vehicle control | fold change | 1.76
C[C@H]1CN(c2n[nH]c3nc(N[C@H]4CC[C@H](NS(=O)(=O)CCC(F)(F)F)CC4)ncc23)CCO1 | Isoleucine--tRNA ligase, cytoplasmic (Homo sapiens, UniProt P41252) | Kinobeads competition, item: IARS | – | 0.16 µM, unit not given | baseline: vehicle | remaining binding | 0.96
Cc1ccc2c(c1)c1c(n2CCc2ccc(C)nc2)CCN(C)C1 | ACHE | – | biochemical | concentration not given | – | activity class | inactive
NC(=O)c1ccc[n+]([C@@H]2O[C@H](COP(=O)(O)O)[C@@H](O)[C@H]2O)c1 | ALDH-137 | substrate | – | – | – | Km | 6700 ± 200 µM
CC[C@H](CO)Nc1nc(NCc2ccc(-c3ccccn3)cc2)c2ncn(C(C)C)c2n1 | Dual specificity protein kinase CLK2 (CLK2, Homo sapiens, UniProt P49760) | KINOMEscan competition binding | – | 10 µM, primary screen | direction not given | binding score | 4.8
CCOC(=O)COc1ccc2c(=O)c3ccccc3oc2c1 | Acetylcholinesterase (ache, Electrophorus electricus, UniProt O42275) | enzyme activity | – | 0.84 µM, with: substrate 3.45 mM | higher = faster reaction | reaction velocity | 0.0027 a.u.
CC(=O)Nc1sc(C)c(C)c1CN1CCc2ccccc2C1 | PFF0160c E182D | enzyme activity, DCIP colorimetric | – | – | baseline: E182D mutant over wild type | IC50 ratio | 5
CN1CCN(c2cc(-c3ccncc3)c(-c3ccc4ccccc4c3)nn2)CC1 | 5-hydroxytryptamine receptor 6 (HTR6, Homo sapiens, UniProt P50406) | agonist, FLIPR | – | 12.5 µM | – | activation | -3.6%
CC(=O)O.CCc1cc2c(cc1CC)CC(NC[C@@H](O)c1ccc(O)c3[nH]c(=O)ccc13)C2 | PFF0160c E182D | enzyme activity, DCIP colorimetric | – | – | baseline: E182D mutant over wild type | IC50 ratio | 0.8
O=C(Nc1cnccc1Cl)N1CCN(Cc2ccc3c(c2)OC(F)(F)O3)CC1 | KATP channel, hamster | binding | – | 50 µM, with: [3H]glyburide | – | inhibition | 13%
COc1cc(Nc2ncc(F)c(Nc3ccc4c(n3)NC(=O)C(C)(C)O4)n2)cc(OC)c1OC | Hormonally up-regulated neu tumor-associated kinase (HUNK, Homo sapiens, UniProt P57058) | KINOMEscan | – | 10 µM | – | inhibition | 0%
N[C@H](C(=O)O)c1cc(=O)[nH]o1 | uncharacterized protein (Ixodes scapularis, UniProt A0A0N9E2I2) | agonist, two-electrode voltage clamp | Xenopus oocytes | unit not given | baseline: 1 mM L-glutamate | Imax | 0.5 ± 0.05
CC[C@@H](C)[C@@H](NC(=O)[C@@H](Cc1ccc(O)cc1)NC(=O)[C@H]1CCCN1C(=O)[C@@H](CCCNC(=N)N)NC(=O)[C@H](N)Cc1c[nH]cn1)C(=O)N[C@H](C)C(=O)N[C@H](Cc1c[nH]cn1)C(=O)N[C@H](CCCNC(=N)N)C(=O)N[C@H](CCCCNC(=O)c1cccc(S(=O)(=O)F)c1)C(=O)N[C@H](Cc1ccc(O)cc1)C(=O)N[C@H](CO)C(=O)N[C@H](Cc1ccccc1)C(N)=O | Transferrin receptor protein 1 (Tfrc, Mus musculus, UniProt Q62351) | flow cytometry | MC-38 | 24 h, unit not given | baseline: 0 h | surface TFRC expression | 0.916
Nc1ccn([C@@H]2O[C@H](COP(=O)(O)OP(=O)(O)OP(=O)(O)O)[C@@H](O)[C@H]2O)c(=O)n1 | pyrG (Escherichia coli, UniProt P0A7E5, C268A) | enzyme activity | – | with: UTP 0.20 mM | – | Hill coefficient | 1.5 ± 0.1
O=C(c1ccc(Cl)cc1)N1CCN2C(=O)N(OC(=O)N3CCOc4ccccc43)C(=O)C2C1 (stereo not drawn) | Phospholipase A1 member A (PLA1A, Homo sapiens, UniProt Q53H76) | MS-based ABPP | SW-620 conditioned medium | 10 µM, 1 h, 37 °C | baseline: compound over DMSO, lower = more inhibition | peptide ratio | 1.18 and 0.88
Cc1ccc2c(c1)C1(C=C2)CCN(C2Cc3ccccc3CC2O)CC1 (racemic) | Vesicular acetylcholine transporter (Rattus norvegicus, UniProt Q62666) | – | – | – | baseline: Ki sigma1 over Ki VAChT | selectivity ratio | 0.74
CN(C(=O)n1cnc(-c2ccc[n+]([O-])c2)c1)C1CCCCC1 | Palmitoyl-protein thioesterase ABHD10, mitochondrial (Abhd10, Rattus norvegicus, UniProt Q5I0K5) | enzyme activity, ABPP | rat, brain | oral, 100 mg/kg/day, 28 days | baseline: vehicle | fold change | -2.7
Cc1ccnc2c1NC(=O)c1cccnc1N2C1CC1 | pol, reverse transcriptase (Feline immunodeficiency virus, UniProt P16088) | SPR | – | – | baseline: FIV RT over HIV-1 RT | KD ratio | 3.7 fold
Cc1cccc(C(=O)N2CCN(Cc3cccc(NC(=O)c4cccs4)c3)CC2)c1.O=C(O)C(F)(F)F | PFF0160c E182D | enzyme activity, DCIP colorimetric | – | – | baseline: E182D mutant over wild type | IC50 ratio | 2.7
COc1ccc(N2C(=O)N(c3c(C)cccc3Cl)Cc3cnc(Nc4ccc(C5CCN(C)CC5)cc4OC)nc32)nc1 | Serine/threonine-protein kinase TAO2 (TAOK2, Homo sapiens, UniProt Q9UL54) | kinase activity | – | 0.5 µM | – | inhibition | 19%
[2H]c1c([2H])c([C@]2([2H])CCCN2C(=O)C(C)(C)Oc2ccc3cn[nH]c3c2)c([2H])c([2H])c1C([2H])([2H])[2H] | Serine/threonine-protein kinase RIO2 (RIOK2, Homo sapiens, UniProt Q9BVS4) | KINOMEscan | – | 1 µM | baseline: DMSO control | remaining binding | 72%
COc1cc(N)c(Cl)cc1C(=O)NC1CN2CCC1CC2 (stereo not drawn) | G-protein coupled receptor 143 (GPR143, Homo sapiens, UniProt P51810) | β-arrestin recruitment, TANGO luminescence | – | concentration not given | baseline: basal luminescence | log2 fold change | 0.548
CC[C@H](C)[C@H](NC(=O)[C@H](CCC(N)=O)NC(=O)[C@@H](NC(=O)[C@@H]1CCCN1C(=O)[C@@H](NC(=O)[C@H](CO)NC(=O)[C@H](Cc1ccccc1)NC(=O)[C@@H]1CCCN1C(=O)[C@H](CCC(N)=O)NC(=O)[C@@H](N)CCSC)[C@@H](C)CC)C(C)C)C(=O)N[C@H](C(=O)N[C@@H](CC(C)C)C(=O)N[C@@H](CCC(N)=O)C(=O)NCC(=O)N[C@@H](CO)C(=O)N[C@@H](CCCNC(=N)N)C(=O)N[C@@H](CCCNC(=N)N)C(=O)N[C@@H](CCCNC(=N)N)C(=O)N[C@@H](CCC(N)=O)C(=O)NCC(=O)N[C@@H](CCCNC(=N)N)C(N)=O)[C@@H](C)O | Kcnma1 (Mus musculus, UniProt Q08460) | ion current, blocker, inside-out patch clamp | Xenopus oocytes | +120 mV, with: 10 µM cytosolic Ca2+ | – | Hill coefficient | 1.33
CCCCCC(=O)O | medium-chain acyl-CoA synthetase A461K | substrate | – | – | – | Km | 810 ± 70 µM

Repeated from above:
SMILES | target | assay | test system | conditions | scale | measurement | value
CC(=O)Nc1sc(C)c(C)c1CN1CCc2ccccc2C1 | PFF0160c E182D | enzyme activity, DCIP colorimetric | – | – | baseline: E182D mutant over wild type | IC50 ratio | 5
CC[C@@H](C)[C@@H](NC(=O)[C@@H](Cc1ccc(O)cc1)NC(=O)[C@H]1CCCN1C(=O)[C@@H](CCCNC(=N)N)NC(=O)[C@H](N)Cc1c[nH]cn1)C(=O)N[C@H](C)C(=O)N[C@H](Cc1c[nH]cn1)C(=O)N[C@H](CCCNC(=N)N)C(=O)N[C@H](CCCCNC(=O)c1cccc(S(=O)(=O)F)c1)C(=O)N[C@H](Cc1ccc(O)cc1)C(=O)N[C@H](CO)C(=O)N[C@H](Cc1ccccc1)C(N)=O | Transferrin receptor protein 1 (Tfrc, Mus musculus, UniProt Q62351) | flow cytometry | MC-38 | 24 h, unit not given | baseline: 0 h | surface TFRC expression | 0.916
